Assay results collected from several papers.
Every numbered part comes from another study and shows a few of its results, in no order. Positions count from the first letter of the parent shown.

Set 1
Target: Prothrombin, mature alpha-thrombin (F2, Homo sapiens, UniProt P00734)
Technique: aptamer microarray, sandwich
Form: DNA with 2'F-ANA
Matrix: in vitro
Tested at: 200 nM
Setting: whole 15-mer aptamer, many near background
Together with: Cy3 exosite-II aptamer, 400 nM
Direction: higher = stronger binding
Strand: GGTTGGTGTGGTTGG
Modification	mean fluorescence intensity [a.u.]
2'F-ANA at 2 5 14	64.8
2'F-ANA at 1 2 4 5 10 11	112
2'F-ANA at 3 4 5 6 11	80.9
2'F-ANA at 3 6 10 11 12 15	577
2'F-ANA at 1 4 5 7 9 10 11 13	52.6
2'F-ANA at 6 9 12 13	644
2'F-ANA at 2 4 7 8 9 10 11 14	64.3
2'F-ANA at 3 6 9 11 12 13	965
2'F-ANA at 1 6 10 12 15	118
2'F-ANA at 1 2 5 7 8 12 13 14 15	47.9
2'F-ANA at 2 6 7 10 11 13 15	99.1
2'F-ANA at 1 4 5 8 10 11 13 14 15	46.7
2'F-ANA at 2 6 7 8 10 13 14 15	83.9
2'F-ANA at 1 2 4 6 7 9 12 13 14	57.4
2'F-ANA at 2 3 9 11 13	707
2'F-ANA at 1 5 6 7 8 11 12	107
2'F-ANA at 3 5 6 7 9 10 12 13 14	48
2'F-ANA at 3 4 6 7 8 11 12 13	721
2'F-ANA at 1 3 4 5 6 7 8 9 11	57
2'F-ANA at 1 2 5 6 8 9 11 12	91.2

Set 2
Target: CCNA2, cyclin fold, Cln2 fusion (human)
Technique: yeast growth competition, sequencing
Matrix: yeast
Setting: strong parent motif
Baseline: not given
Direction: higher = stronger binding
Starting sequence: CABLES2 docking peptide (human); ICAKRSLCAAFSV; partner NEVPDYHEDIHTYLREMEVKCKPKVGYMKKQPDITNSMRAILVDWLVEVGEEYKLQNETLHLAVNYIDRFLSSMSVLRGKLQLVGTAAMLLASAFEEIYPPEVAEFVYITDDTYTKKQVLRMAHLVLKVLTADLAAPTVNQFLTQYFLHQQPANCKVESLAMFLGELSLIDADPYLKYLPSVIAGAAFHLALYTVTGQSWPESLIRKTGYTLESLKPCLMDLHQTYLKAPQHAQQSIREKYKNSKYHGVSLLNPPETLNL
Change	normalised enrichment score
S12A	2.73
V13A	2.78
K4A	0.716
C8A	2.98
I1A	2.16

Set 3
Target: Sal-like protein 4, full length isoform A (SALL4, Homo sapiens, UniProt Q9UJQ4, residues 1-1053)
Chain of UniProt Q9UJQ4 (whole entry, looked up): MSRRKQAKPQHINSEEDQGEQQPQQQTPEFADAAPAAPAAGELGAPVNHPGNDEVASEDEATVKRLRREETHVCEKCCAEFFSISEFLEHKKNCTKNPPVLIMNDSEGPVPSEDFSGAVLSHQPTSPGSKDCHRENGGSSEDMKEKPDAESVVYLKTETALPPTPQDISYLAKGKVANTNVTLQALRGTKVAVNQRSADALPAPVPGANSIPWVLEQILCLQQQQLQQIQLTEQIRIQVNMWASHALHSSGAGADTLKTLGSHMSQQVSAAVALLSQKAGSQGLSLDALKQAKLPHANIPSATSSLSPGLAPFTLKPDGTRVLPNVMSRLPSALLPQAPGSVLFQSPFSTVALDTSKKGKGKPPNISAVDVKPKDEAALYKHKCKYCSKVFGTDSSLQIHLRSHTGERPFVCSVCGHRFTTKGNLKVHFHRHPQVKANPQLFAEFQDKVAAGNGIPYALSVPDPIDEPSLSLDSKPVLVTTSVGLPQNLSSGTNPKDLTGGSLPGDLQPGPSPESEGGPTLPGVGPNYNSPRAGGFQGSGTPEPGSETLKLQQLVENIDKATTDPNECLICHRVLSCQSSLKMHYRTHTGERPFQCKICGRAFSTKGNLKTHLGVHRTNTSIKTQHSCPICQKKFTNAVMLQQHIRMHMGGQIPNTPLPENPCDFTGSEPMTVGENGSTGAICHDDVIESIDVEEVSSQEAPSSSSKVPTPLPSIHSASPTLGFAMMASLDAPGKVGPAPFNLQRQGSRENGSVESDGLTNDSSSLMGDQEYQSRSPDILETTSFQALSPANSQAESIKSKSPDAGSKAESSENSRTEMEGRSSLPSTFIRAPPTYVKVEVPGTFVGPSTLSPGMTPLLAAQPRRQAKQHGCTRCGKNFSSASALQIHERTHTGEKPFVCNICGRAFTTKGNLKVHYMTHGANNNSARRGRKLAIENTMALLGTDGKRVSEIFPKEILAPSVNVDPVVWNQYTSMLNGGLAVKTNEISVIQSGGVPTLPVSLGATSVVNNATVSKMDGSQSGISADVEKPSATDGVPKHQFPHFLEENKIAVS
Technique: universal PBM
Form: double-stranded DNA, one strand shown
Matrix: in vitro
Tested at: 600 nM
Setting: 8-mer, flanks averaged, mean of replicates
Direction: higher = stronger binding
Strand	E-score
ACTAATAG	0.166
AGAAGAGA	0.0437
TCCAGTCA	-0.104
ACAGAAGT	0.222
TATTGGCA	0.204
CTTACCAA	0.165
CAGACCAC	-0.241
ATGGAGTA	0.141
CACGGCTG	-0.281
ATAAAAAC	0.32
AGCTGATC	-0.0963
TCGCCGCA	-0.136
CTCTAGGC	-0.188
GGTTAGAC	-0.105
CGTTCTGC	-0.17
CACGACCA	-0.133
CACTACCA	0.0226
AGTACCAA	0.108
ACTCTTGA	0.0695
ACCTCGTG	0.036

Set 4
Target: Interferon regulatory factor 5, full length, phosphomimetic (IRF5, Homo sapiens, UniProt Q13568-2, residues 1-514, K96S/S451D/S453D/S456D/S462D)
Technique: protein-binding microarray
Form: double-stranded DNA, one strand shown
Matrix: in vitro
Tested at: 250 nM
Setting: 60-bp whole probe
Together with: salmon DNA 0.4 mg/ml
Baseline: random background probes
Direction: higher = stronger binding
Shared flanks, not repeated: GCCTAGCAC … GTCTTGATTCGCTTGACGCTGCTG
Strand	log fluorescence [z-score]
AGTCATCTCCAAAGTCAGCCAGTGCTA	-0.0409
TCAGTTATCCATCTCAAACTGTGCTAG	0.286
GACGGTCTCTTTCTCCTGACGTGCTAG	1.12
GGCGATTCCAGTTTCGAGACGTGCTAG	5.18
GAAGGTTCCCTTTTCCTGACGTGCTAG	0.227
GCCGGTTTCGGTTTCGGGACGTGCTAG	10.9
TCAGTTTTCAATTTTTGACTGTGCTAG	1.48
GACGATTTCGGGGTTCGAGACGTGCTA	1.99
CACGGTATCGGGTTTCGGGACGTGCTA	3.86
GATGGTTTCGACTTTCGGGACGTGCTA	8.52
TTATGACTGGGTTTCGGTTAGTGCTAG	8.87
AAACTCGTGTTTTTCTCCTAGTGCTAG	0.583
GACGGACTGTGGTTTCGGGACGTGCTA	2.46
CACGGTTTCGGACTGGGGACGTGCTAG	3.66
GACGATATCGGGACTGGAGACGTGCTA	0.847
TTAGTTATCGGGACTGGGTTAGTGCTA	1.58
TCAGGTCTCCTACTGCTTTAGTGCTAG	-0.303
GACGGTATCCTTCACCTGACGTGCTAG	0.136
GTAGATATCAGTTTCGATTAGTGCTAG	9.77
GTAGGTTTCCTTCTCCTTTAGTGCTAG	0.835
GACGATCGCAGACTGGAGACGTGCTAG	-0.48

For quick reference, copied from above (set 4):
Strand	log fluorescence [z-score]
AGTCATCTCCAAAGTCAGCCAGTGCTA	-0.0409
GACGATTTCGGGGTTCGAGACGTGCTA	1.99
AAACTCGTGTTTTTCTCCTAGTGCTAG	0.583
GACGGTATCCTTCACCTGACGTGCTAG	0.136
CACGGTTTCGGACTGGGGACGTGCTAG	3.66
GACGATCGCAGACTGGAGACGTGCTAG	-0.48
TCAGTTTTCAATTTTTGACTGTGCTAG	1.48
GAAGGTTCCCTTTTCCTGACGTGCTAG	0.227
GTAGATATCAGTTTCGATTAGTGCTAG	9.77
GACGGTCTCTTTCTCCTGACGTGCTAG	1.12
GACGGACTGTGGTTTCGGGACGTGCTA	2.46
